Measurements of several laboratories.
Compare with care: the assays were run in different laboratories. ± gives the spread as reported.
coaD: Phosphopantetheine adenylyltransferase (coaD, Mycobacterium tuberculosis, UniProt P9WPA5)
Sequence of UniProt P9WPA5 (whole entry, looked up): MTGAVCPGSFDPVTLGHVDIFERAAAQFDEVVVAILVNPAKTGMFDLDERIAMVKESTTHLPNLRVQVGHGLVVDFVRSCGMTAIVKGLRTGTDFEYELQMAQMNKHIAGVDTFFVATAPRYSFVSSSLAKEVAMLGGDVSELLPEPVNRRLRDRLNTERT
gyrB with GyrA: DNA gyrase subunit B, with GyrA (gyrB, Mycobacterium tuberculosis, UniProt P9WG45)
Sequence of UniProt P9WG45 (whole entry, looked up): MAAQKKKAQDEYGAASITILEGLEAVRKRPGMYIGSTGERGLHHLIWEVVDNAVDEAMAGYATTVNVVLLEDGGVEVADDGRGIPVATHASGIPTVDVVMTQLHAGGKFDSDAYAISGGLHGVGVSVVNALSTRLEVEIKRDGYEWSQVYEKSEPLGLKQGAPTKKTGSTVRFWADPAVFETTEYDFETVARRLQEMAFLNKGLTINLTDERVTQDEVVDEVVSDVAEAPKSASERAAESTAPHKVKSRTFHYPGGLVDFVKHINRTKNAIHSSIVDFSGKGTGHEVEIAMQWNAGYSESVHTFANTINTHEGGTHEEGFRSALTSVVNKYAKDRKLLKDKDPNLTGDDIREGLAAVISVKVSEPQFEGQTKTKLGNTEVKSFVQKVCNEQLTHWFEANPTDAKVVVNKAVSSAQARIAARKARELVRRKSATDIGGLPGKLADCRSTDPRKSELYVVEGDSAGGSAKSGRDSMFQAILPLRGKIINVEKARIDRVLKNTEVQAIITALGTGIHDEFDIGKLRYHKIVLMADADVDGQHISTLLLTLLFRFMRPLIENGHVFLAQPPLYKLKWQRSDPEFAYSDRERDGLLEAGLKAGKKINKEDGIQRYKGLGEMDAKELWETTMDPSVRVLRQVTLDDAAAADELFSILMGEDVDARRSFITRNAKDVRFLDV
CNR2: Cannabinoid receptor 2 (CNR2, Homo sapiens, UniProt P34972)
Sequence of UniProt P34972 (whole entry, looked up): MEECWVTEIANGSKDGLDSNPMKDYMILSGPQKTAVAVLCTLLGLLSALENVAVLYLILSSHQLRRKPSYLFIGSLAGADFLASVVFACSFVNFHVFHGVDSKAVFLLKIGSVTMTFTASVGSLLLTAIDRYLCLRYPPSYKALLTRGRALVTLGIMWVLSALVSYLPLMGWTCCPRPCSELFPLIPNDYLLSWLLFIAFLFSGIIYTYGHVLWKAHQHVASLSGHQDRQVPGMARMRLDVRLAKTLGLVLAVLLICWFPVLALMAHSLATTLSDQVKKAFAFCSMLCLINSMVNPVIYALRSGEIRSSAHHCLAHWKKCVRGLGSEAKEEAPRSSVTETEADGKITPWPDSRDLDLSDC
Sequence of UniProt Q99571 (whole entry, looked up): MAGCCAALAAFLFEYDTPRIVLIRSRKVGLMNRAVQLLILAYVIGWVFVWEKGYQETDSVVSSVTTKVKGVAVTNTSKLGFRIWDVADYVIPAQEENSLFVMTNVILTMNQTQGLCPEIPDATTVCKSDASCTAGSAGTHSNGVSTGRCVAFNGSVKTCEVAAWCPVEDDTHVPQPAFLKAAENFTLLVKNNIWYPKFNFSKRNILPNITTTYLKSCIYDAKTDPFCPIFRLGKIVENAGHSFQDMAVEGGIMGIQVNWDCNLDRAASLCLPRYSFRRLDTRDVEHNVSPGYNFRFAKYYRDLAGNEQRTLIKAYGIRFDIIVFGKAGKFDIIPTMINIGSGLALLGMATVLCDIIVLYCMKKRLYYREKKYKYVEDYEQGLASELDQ
Sequence of UniProt P9WNE1 (whole entry, looked up): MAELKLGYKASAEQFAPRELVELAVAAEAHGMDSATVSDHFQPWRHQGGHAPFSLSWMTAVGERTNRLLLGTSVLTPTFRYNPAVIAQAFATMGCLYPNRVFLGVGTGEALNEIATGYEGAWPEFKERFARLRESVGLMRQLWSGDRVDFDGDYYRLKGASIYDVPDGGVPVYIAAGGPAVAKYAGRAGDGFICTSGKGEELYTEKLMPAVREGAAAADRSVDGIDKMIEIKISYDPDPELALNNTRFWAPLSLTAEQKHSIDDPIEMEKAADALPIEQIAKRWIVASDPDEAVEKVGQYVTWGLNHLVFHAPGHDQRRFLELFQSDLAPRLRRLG
Sequence of UniProt P9WIY3 (whole entry, looked up): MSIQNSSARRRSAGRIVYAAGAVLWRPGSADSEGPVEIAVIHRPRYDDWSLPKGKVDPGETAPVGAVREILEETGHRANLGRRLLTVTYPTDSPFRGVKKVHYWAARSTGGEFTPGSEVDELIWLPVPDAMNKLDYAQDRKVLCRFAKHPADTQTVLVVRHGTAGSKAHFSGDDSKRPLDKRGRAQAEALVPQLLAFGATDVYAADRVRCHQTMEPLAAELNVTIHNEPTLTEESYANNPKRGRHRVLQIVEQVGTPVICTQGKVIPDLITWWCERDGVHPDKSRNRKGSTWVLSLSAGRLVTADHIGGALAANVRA
Sequence of UniProt P14867 (whole entry, looked up): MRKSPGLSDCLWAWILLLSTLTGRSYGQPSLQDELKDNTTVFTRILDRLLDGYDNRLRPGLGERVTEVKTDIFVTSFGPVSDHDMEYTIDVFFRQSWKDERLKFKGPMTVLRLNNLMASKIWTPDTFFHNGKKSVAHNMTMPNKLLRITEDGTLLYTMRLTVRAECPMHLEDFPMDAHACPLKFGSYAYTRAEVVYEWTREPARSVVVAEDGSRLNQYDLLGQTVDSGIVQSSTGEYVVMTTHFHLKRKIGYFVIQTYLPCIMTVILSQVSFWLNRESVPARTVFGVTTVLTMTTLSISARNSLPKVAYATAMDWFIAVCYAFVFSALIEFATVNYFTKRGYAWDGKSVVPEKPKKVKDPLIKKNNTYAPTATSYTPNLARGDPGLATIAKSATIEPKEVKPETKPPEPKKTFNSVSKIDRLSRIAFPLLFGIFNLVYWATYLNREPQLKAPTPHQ
Sequence of UniProt P47870 (whole entry, looked up): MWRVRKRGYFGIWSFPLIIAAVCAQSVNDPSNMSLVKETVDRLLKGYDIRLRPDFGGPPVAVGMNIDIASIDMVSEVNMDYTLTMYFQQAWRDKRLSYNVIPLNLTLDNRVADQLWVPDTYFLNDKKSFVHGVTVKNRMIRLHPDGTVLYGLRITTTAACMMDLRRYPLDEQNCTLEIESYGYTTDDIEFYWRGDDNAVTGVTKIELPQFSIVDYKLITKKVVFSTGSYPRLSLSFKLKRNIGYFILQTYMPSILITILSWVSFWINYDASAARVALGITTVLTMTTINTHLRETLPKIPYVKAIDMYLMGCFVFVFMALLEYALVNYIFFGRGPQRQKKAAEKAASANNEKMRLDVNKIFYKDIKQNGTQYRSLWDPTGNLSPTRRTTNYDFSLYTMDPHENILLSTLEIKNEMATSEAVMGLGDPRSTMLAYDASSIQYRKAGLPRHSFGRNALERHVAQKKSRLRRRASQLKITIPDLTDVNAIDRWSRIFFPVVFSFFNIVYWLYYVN
Sequence of UniProt P35372 (whole entry, looked up): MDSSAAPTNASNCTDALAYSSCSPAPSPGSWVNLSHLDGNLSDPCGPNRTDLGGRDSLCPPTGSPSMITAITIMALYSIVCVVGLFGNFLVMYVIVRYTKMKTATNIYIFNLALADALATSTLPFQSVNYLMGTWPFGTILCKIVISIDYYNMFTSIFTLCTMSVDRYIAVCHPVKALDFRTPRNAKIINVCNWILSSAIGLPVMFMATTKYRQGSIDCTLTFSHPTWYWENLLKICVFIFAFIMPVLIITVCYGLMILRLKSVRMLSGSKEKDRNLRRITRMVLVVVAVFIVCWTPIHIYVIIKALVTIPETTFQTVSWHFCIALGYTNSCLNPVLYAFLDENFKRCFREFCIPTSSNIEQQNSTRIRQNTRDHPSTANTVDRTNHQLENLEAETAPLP

O=C(O)c1cnn(-c2ccccc2)c1OCCc1c[nH]c2ccccc12 has a Kd of 38 ± 2 µM (coaD; ITC; pH 8.0, 25 °C, 5% DMSO).
CC(C)(C)OC(=O)N1CCN(C(=O)CCc2c(C(=O)N3CCN(C(=O)OC(C)(C)C)CC3)[nH]c3ccc(Cl)cc23)CC1 gave an IC50 of 94 µM (gyrB with GyrA; inhibitor).
O=C(O)CC(O)(CC(=O)O)C(=O)O has a Ki of 0.84 ± 0.05 µM (fgd1 (Mycobacterium tuberculosis, UniProt P9WNE1); inhibitor).
For CC[C@@H](c1cccc(O)c1)[C@@H](C)CN(C)C, the EC50 was 0.398 µM (OPRM1 (Homo sapiens, UniProt P35372); agonist; human cells; WT receptor, no receptor depletion).
For CC(=O)O[C@]1(C(C)=O)CC[C@H]2[C@@H]3C=C(C)C4=CC(=O)CC[C@]4(C)[C@H]3CC[C@@]21C, the maximum inhibition was 4.18% (human coronavirus OC43; virus-induced cell killing; MRC-5; screen).
For Cc1ccc(NC(=O)CCc2c(C(=O)Nc3ccc(C)cc3)[nH]c3ccc(C)cc23)cc1, the IC50 was 59.1 µM (gyrB with GyrA; inhibitor).
OC[C@H]1CNC[C@@H](O)[C@@H]1O gave a Ki of 0.083 ± 0.012 µM (toxin B, glucosyltransferase domain (Clostridioides difficile, UniProt A0A9R0CDJ3)).
O=C(O)c1cnn(-c2ccccc2)c1OCCCc1c[nH]c2ccccc12 gave a Ki of ~260 µM (coaD; enzyme activity, inhibitor, coupled pyrophosphate release; together with: ATP 500 µM, 4'-phosphopantetheine 40 µM).
The Ki of CC1(C)C(C(=O)c2cn(CCCCCF)c3ccccc23)C1(C)C is reported as 0.0021 µM (CNR2).
O=C(O)CN(CCN(CC(=O)O)CC(=O)O)CC(=O)O has an IC50 of 3400 ± 900 µM (8-oxo-(d)GTP phosphatase (mutT1, Mycobacterium tuberculosis, UniProt P9WIY3)).
For O=C(NCc1cccs1)C1CCCN(Cc2cccc(-c3ccc(F)cc3F)c2)C1 (stereo not shown), the maximum response was -10.4% (Vero-E6; CellTiter-Glo ATP; 72 h, first round 5-point; baseline: DMSO 0%, hyamine -100%, more negative, more toxic).
The IC50 of O=S(=O)(c1ccc(C(F)(F)F)cc1)N1CCNCC1COc1ccc2ccccc2c1 (stereo not shown) is reported as > 10 µM (P2X purinoceptor 4 (P2RX4, Homo sapiens, UniProt Q99571); calcium flux, inhibitor, Ca2+ flux; human cells).
For O[C@H]1[C@H](O)[C@@H](O)CN2CC[C@H](O)[C@H]12, the Ki was 2350 µM (Toxin B, glucosyltransferase domain (Clostridioides difficile, UniProt A0A9R0CDJ3); glucosyltransferase activity, inhibitor, UDP-Glo glucosyltransferase luminescence; together with: Rac1 and UDP-glucose).
The cytotoxicity efficacy of CNCCN(C)c1nc(NC(C)c2ccccc2)c2ccccc2n1 (stereo not shown) is reported as 0% (Vero-E6; CellTiter-Glo ATP; concentration not given, 72 h, second round 5-point; baseline: DMSO 0%, hyamine -100%, more negative, more toxic).
O=C(CCc1c(C(=O)NNc2ccccc2)[nH]c2ccc(C(F)(F)F)cc12)NNc1ccccc1 gave an IC50 of > 500 µM (gyrB with GyrA; inhibitor).
CCCCCn1cc(C(=O)C2C(C)(C)C2(C)C)c2ccccc21 gave a Ki of 0.0045 µM (CNR2).
With C[C@@]12CC[C@H](O)C[C@H]1CC[C@@H]1[C@@H]2CC[C@@]2(C)C(=O)CC[C@@H]12 the EC50 was 8.34 µM (GABA-A receptor; GABA-A site (alpha1/beta2 interface) (Homo sapiens, UniProt P14867+P47870)).
O=C(CCc1c(C(=O)Nc2ccc(Cl)cc2)[nH]c2cc(C(F)(F)F)c(Cl)cc12)Nc1ccc(Cl)cc1 has an IC50 of 15.3 µM (gyrB with GyrA; inhibitor).
CNC(=O)c1cc(COc2nnc(Nc3ccc(Cl)cc3)c3ccoc23)ccn1 gave a maximum inhibition of 0% (human coronavirus OC43; virus-induced cell killing; MRC-5; maximum over 10 doses).

Some of these lines once more:
CC(C)(C)OC(=O)N1CCN(C(=O)CCc2c(C(=O)N3CCN(C(=O)OC(C)(C)C)CC3)[nH]c3ccc(Cl)cc23)CC1 gave an IC50 of 94 µM (gyrB with GyrA; inhibitor).
O=C(CCc1c(C(=O)NNc2ccccc2)[nH]c2ccc(C(F)(F)F)cc12)NNc1ccccc1 gave an IC50 of > 500 µM (gyrB with GyrA; inhibitor).
